Results of several laboratories.
Numbered parts are unrelated; each lists some results of a single study. Values joined by “and” are separate records of one study, mostly repeats; a detail may differ.
Sequence of UniProt P42336 (whole entry, unmodified, looked up): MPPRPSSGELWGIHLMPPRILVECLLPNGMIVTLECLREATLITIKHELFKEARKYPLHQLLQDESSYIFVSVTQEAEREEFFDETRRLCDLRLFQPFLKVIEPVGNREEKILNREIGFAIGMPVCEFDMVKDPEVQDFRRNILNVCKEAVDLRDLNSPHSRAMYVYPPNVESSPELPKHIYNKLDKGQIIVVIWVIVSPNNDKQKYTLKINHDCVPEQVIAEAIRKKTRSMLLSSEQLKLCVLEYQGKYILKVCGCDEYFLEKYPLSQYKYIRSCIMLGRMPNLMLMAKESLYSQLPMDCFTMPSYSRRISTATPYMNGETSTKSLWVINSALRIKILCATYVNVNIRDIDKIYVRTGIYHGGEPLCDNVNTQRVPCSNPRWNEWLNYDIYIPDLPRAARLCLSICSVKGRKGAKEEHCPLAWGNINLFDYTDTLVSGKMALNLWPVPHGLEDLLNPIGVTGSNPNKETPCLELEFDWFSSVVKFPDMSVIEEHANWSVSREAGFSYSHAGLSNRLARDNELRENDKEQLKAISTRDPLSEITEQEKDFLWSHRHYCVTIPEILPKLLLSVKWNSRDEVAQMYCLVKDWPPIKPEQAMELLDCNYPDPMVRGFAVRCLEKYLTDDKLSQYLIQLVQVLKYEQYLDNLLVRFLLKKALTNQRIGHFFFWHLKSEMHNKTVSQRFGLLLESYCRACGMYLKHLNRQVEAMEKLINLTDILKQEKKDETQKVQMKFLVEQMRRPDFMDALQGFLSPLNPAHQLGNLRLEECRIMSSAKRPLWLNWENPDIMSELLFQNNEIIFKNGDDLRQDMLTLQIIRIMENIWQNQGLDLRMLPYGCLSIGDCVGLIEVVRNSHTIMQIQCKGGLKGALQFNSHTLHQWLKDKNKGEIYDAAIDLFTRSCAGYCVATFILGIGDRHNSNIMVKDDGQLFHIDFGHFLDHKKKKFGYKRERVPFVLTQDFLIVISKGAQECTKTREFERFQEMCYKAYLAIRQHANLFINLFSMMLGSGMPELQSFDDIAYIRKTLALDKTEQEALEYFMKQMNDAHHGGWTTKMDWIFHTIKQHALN
Sequence of UniProt P00519 (whole entry, unmodified, looked up): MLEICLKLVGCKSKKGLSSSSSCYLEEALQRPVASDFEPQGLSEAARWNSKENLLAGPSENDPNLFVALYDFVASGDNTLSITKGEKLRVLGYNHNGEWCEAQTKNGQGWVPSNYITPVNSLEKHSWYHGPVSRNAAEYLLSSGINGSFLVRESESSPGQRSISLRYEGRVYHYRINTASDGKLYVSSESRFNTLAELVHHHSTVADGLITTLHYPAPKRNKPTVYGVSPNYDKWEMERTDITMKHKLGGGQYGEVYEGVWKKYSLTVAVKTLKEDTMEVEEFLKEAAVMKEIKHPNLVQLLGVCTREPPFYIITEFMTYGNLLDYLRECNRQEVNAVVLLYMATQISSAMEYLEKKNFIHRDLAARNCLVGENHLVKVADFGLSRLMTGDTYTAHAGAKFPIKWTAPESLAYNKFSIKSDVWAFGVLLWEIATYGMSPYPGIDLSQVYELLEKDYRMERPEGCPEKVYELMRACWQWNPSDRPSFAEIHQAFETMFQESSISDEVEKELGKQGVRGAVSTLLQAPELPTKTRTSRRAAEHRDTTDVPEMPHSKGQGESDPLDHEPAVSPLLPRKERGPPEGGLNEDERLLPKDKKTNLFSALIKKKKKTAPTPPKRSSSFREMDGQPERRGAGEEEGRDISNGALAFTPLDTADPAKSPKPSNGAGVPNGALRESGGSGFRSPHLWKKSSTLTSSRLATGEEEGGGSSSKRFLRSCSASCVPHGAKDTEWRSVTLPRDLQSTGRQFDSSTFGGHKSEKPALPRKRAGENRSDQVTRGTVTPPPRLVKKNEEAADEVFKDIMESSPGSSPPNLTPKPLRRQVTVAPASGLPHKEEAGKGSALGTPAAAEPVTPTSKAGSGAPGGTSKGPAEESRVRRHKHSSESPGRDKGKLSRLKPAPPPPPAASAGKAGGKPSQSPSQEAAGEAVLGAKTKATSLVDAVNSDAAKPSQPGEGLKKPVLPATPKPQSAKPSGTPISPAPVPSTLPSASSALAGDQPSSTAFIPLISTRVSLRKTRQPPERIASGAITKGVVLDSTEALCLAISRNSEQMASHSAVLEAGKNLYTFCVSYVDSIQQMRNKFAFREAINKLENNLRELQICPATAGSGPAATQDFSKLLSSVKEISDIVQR
Sequence of UniProt O15075 (whole entry, looked up): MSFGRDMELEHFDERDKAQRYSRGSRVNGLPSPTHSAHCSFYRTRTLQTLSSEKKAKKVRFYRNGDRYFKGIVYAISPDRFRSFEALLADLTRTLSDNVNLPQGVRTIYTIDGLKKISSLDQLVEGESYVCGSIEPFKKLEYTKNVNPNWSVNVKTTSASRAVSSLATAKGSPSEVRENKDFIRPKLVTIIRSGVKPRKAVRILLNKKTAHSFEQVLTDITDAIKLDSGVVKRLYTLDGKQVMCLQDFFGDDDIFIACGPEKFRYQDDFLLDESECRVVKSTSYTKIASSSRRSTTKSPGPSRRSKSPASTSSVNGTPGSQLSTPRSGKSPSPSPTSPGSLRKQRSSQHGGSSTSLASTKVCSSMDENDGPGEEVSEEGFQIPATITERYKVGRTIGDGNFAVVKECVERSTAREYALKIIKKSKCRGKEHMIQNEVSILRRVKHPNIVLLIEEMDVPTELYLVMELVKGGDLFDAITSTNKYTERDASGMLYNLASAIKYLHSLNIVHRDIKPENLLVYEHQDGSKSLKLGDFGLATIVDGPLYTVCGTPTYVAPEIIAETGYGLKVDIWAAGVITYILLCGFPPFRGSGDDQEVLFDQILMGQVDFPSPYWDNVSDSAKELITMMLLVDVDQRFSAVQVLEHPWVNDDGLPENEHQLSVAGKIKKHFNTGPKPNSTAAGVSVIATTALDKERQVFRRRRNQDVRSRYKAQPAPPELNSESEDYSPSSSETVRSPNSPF
Sequence of UniProt Q52WX2 (whole entry, looked up): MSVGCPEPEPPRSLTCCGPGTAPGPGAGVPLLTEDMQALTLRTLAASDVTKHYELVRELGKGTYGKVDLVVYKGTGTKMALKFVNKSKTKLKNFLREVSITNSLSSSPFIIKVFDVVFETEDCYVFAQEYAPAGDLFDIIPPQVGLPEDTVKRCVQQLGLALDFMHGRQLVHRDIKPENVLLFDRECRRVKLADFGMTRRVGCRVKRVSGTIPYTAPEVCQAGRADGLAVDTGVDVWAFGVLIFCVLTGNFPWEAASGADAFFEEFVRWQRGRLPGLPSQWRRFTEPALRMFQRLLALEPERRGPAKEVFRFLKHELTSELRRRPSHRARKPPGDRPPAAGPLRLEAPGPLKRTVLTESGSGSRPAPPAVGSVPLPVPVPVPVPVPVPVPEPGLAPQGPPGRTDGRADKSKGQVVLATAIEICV
Sequence of UniProt P06241 (whole entry, looked up): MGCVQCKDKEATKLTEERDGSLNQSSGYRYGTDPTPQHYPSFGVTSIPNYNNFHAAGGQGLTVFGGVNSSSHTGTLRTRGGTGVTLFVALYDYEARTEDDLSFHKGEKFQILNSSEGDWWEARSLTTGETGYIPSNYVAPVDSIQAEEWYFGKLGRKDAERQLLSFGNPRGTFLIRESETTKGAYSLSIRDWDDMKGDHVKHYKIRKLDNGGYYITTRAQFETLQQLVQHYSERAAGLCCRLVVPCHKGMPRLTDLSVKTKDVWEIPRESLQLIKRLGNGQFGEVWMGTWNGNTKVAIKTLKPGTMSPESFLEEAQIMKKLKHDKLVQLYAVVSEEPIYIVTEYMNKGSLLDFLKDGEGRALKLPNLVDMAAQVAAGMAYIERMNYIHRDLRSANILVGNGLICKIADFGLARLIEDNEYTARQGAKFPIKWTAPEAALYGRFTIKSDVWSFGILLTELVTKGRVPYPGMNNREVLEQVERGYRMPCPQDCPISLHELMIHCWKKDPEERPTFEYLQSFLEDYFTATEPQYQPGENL
Sequence of UniProt Q04759 (whole entry, looked up): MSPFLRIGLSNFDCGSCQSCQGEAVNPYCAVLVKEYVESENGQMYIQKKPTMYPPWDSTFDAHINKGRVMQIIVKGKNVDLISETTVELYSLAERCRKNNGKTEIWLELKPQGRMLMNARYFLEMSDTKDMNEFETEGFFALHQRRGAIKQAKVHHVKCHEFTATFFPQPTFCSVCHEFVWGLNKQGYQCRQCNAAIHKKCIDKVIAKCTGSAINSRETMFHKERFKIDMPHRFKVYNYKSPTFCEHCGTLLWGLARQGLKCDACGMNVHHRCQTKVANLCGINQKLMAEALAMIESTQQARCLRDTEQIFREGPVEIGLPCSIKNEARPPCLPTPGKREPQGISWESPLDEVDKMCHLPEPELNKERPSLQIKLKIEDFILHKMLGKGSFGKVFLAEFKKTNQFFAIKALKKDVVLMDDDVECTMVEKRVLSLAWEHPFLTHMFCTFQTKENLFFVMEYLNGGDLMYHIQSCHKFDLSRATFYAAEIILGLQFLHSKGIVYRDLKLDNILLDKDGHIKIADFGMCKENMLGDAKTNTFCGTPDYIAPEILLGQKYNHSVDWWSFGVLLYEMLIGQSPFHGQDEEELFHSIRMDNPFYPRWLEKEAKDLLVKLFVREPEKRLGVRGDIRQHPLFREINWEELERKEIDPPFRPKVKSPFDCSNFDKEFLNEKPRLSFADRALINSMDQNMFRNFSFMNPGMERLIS
Sequence of UniProt P49674 (whole entry, looked up): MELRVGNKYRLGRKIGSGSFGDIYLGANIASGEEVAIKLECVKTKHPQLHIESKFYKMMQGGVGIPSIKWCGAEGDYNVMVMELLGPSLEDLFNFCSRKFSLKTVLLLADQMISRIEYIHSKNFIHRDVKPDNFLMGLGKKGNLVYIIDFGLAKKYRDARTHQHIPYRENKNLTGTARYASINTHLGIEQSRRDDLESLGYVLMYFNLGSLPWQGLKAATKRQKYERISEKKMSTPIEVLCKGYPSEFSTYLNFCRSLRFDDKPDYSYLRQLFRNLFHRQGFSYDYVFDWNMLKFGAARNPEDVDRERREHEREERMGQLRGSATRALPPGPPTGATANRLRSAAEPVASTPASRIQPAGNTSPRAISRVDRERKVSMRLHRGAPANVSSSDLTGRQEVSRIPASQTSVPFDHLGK

Series 1 — observed: binding; mode: competitor; technique: NanoBRET; cell line: HEK293
SMILES: CCC(=O)N1CCN(c2nc(OC[C@@H]3CCCN3C)nc3c2CCN(c2cccc4cccc(Cl)c24)C3)C[C@@H]1CC#N
KRAS Q61H: GTPase KRas (KRAS, Homo sapiens, UniProt P01116, Q61H)
KRAS Q61L: GTPase KRas (KRAS, Homo sapiens, UniProt P01116, Q61L)
target	tested at	normalized BRET
GTPase KRas (KRAS, Homo sapiens, UniProt P01116, G13D)	15.2 nM	93.9% and 94.6% and 109%
KRAS Q61H	45.7 nM	90.3% and 97.5% and 85.6%
KRAS Q61L	1.24 µM	63% and 58.9% and 60.1%
KRAS Q61L	45.7 nM	94.3% and 103% and 91.1%
GTPase KRas (KRAS, Homo sapiens, UniProt P01116, Q61R)	1.24 µM	99.6% and 85.6% and 106%
KRAS Q61H	412 nM	81% and 70.1% and 68.9%

Series 2 — host: human; matrix: microsomes or S9; tested at: 2 µM; time: 0.5 h
SMILES	remaining compound [%]
O=S1(=O)CCN(CC2CCCO2)c2c(Oc3ccc(F)cc3)nc(F)c(Cl)c21 (stereo not drawn)	61.1
CC(C)OC(=O)c1c(NC(=O)CN2CCN(C)CC2)sc2c1CCCC2	41.3
COc1ccccc1Nc1nc(N)nc(CN(C)Cc2ccco2)n1	30.1
Oc1c2ccc(-c3ccc[nH]3)nc2nn1-c1ccccc1	43.8
CC(C)C(=O)NC[C@@H]1C[C@H](F)CN1C(=O)CS(C)(=O)=O	68.8
O=C(C1CCCC1)N1CCc2nc3cc(C4CCCN(C(=O)C5CCCC5)C4)nn3c(O)c2C1 (stereo not drawn)	47.5
Cc1nnc(-c2csc(S(=O)(=O)NC(C)C)c2)o1	66.6
Cn1cc(C(NC(=O)c2c[nH]c3c(F)cccc3c2=O)[C@H]2C[C@@H](O)C2)cn1 (stereo partly drawn)	> 100

Series 3 — cell line: UACC-903 melanoma
SMILES	IC50 [µM]
CNCCC=C1c2ccccc2CCc2ccccc21	14.9
CNCCCN1c2ccccc2CCc2ccccc21	20.6
CN1CCc2c(c3ccccc3n2Cc2ccccc2)C1	42.1
COCCCC/C(=N\OCCN)c1ccc(C(F)(F)F)cc1	28.6
CN(C)CCCN1c2ccccc2Sc2ccc(Cl)cc21	16.4
Fc1ccc([C@@H]2CCNC[C@H]2COc2ccc3c(c2)OCO3)cc1	6.2

Series 4 — tested at: 1 µM
SMILES: C=CC(=O)N1CCC([C@@H]2CCNc3c(C(N)=O)c(-c4ccc(Oc5ccccc5)cc4)nn32)CC1
target	observed	mode	inhibition
PRKG1 (Homo sapiens, UniProt Q13976)	enzyme activity	inhibitor	18%
DDR2 (Homo sapiens, UniProt Q16832)	cell-free assay		26%
PIK3CA (Homo sapiens, UniProt P42336, H1047L)	enzyme activity	inhibitor	11%
MARK1 (Homo sapiens, UniProt Q9P0L2)	enzyme activity	inhibitor	7%
FLT3 (Homo sapiens, UniProt P36888, D835V/ITD)	enzyme activity	inhibitor	0%
PRKCH (Homo sapiens, UniProt P24723)	enzyme activity	inhibitor	8%
PRKCQ (Homo sapiens, UniProt Q04759)	enzyme activity	inhibitor	0%
CSNK1E (Homo sapiens, UniProt P49674)	enzyme activity	inhibitor	19%
Tyrosine-protein kinase ABL1, phosphorylated (ABL1, Homo sapiens, UniProt P00519, F317L)	enzyme activity	inhibitor	32%

Series 5
Compound: CNC(=O)c1ccc(Nc2ncc(C(F)(F)F)c(NCc3nccnc3N(C)S(C)(=O)=O)n2)cc1
target	observed	technique	tested at	remaining binding [%]
SGK1 (Homo sapiens, UniProt O00141)	cell-free assay	competition with immobilised ligand	0.1 µM	56
Tyrosine-protein kinase ABL1, phosphorylated (ABL1, Homo sapiens, UniProt P00519, F317L)	cell-free assay	competition with immobilised ligand	0.1 µM	93
MAP3K5 (Homo sapiens, UniProt Q99683)	cell-free assay	competition with immobilised ligand	0.1 µM	100
PIK3CA (Homo sapiens, UniProt P42336)	cell-free assay	competition with immobilised ligand	0.1 µM	100
Myosin-IIIa (MYO3A, Homo sapiens, UniProt Q8NEV4)	binding	competition with immobilised ligand	0.1 µM	100
PIK3CA (Homo sapiens, UniProt P42336, Q546K)	cell-free assay	competition with immobilised ligand	0.1 µM	17
FYN (Homo sapiens, UniProt P06241)	cell-free assay	competition with immobilised ligand	0.1 µM	100
LYN (Homo sapiens, UniProt P07948)	cell-free assay	competition with immobilised ligand	0.1 µM	85
PLK2 (Homo sapiens, UniProt Q9NYY3)	cell-free assay	competition with immobilised ligand	0.1 µM	77
PLK1 (Homo sapiens, UniProt P53350)	cell-free assay	competition with immobilised ligand	0.1 µM	84
MARK3 (Homo sapiens, UniProt P27448)	cell-free assay	competition with immobilised ligand	0.1 µM	90
PAK1 (Homo sapiens, UniProt Q13153)	cell-free assay	competition with immobilised ligand	0.1 µM	75
PRKAA1 (Homo sapiens, UniProt Q13131)	cell-free assay	competition with immobilised ligand	0.1 µM	84
PRKACB (Homo sapiens, UniProt P22694)	cell-free assay	competition with immobilised ligand	0.1 µM	93
YES1 (Homo sapiens, UniProt P07947)	cell-free assay	competition with immobilised ligand	0.1 µM	100
SBK1 (Homo sapiens, UniProt Q52WX2)	cell-free assay	competition with immobilised ligand	0.1 µM	67
SNRK (Homo sapiens, UniProt Q9NRH2)	cell-free assay	competition with immobilised ligand	0.1 µM	100
MYLK3 (Homo sapiens, UniProt Q32MK0)	cell-free assay	competition with immobilised ligand	0.1 µM	100
FLT3 (Homo sapiens, UniProt P36888, N841I)	binding	competition with immobilised ligand	1 µM	0
STK16 (Homo sapiens, UniProt O75716)	binding	competition with immobilised ligand	1 µM	7.7
WNK1 (Homo sapiens, UniProt Q9H4A3)	cell-free assay	competition with immobilised ligand	0.1 µM	100
DCLK1 (Homo sapiens, UniProt O15075)	cell-free assay	competition with immobilised ligand	0.1 µM	99
CDC42BPG (Homo sapiens, UniProt Q6DT37)		competition binding	0.1 µM	80
BMPR2 (Homo sapiens, UniProt Q13873)	cell-free assay	competition with immobilised ligand	0.1 µM	91
RET (Homo sapiens, UniProt P07949)	cell-free assay	competition with immobilised ligand	0.1 µM	60

Repeated from above (series 5):
target	observed	technique	tested at	remaining binding [%]
MAP3K5 (Homo sapiens, UniProt Q99683)	cell-free assay	competition with immobilised ligand	0.1 µM	100
PIK3CA (Homo sapiens, UniProt P42336)	cell-free assay	competition with immobilised ligand	0.1 µM	100
Myosin-IIIa (MYO3A, Homo sapiens, UniProt Q8NEV4)	binding	competition with immobilised ligand	0.1 µM	100
PIK3CA (Homo sapiens, UniProt P42336, Q546K)	cell-free assay	competition with immobilised ligand	0.1 µM	17
FYN (Homo sapiens, UniProt P06241)	cell-free assay	competition with immobilised ligand	0.1 µM	100
LYN (Homo sapiens, UniProt P07948)	cell-free assay	competition with immobilised ligand	0.1 µM	85
PLK2 (Homo sapiens, UniProt Q9NYY3)	cell-free assay	competition with immobilised ligand	0.1 µM	77
